Measurements collected from several papers.
Lines come from different studies, so protocols differ. ± gives the spread as reported.
UniProt P43250, sequence (whole entry, looked up): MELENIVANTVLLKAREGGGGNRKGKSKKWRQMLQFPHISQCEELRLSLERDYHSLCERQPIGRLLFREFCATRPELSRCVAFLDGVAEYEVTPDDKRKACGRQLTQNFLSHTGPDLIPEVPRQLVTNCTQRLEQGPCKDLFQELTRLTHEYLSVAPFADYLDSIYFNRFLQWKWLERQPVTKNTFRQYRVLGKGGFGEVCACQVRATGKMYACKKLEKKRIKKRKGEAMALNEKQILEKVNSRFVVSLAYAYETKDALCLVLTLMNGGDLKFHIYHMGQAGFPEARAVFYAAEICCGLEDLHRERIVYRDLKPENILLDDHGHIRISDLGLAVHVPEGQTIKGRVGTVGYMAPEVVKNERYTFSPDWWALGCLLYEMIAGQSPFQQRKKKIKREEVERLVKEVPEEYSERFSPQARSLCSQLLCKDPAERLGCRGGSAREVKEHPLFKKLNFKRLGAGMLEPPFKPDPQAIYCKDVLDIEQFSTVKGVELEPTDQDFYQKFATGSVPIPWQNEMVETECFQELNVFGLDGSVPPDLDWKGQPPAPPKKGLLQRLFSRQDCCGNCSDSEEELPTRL

Structure (SMILES) | tested on | assay | test system | setting | scale | measurement | value
Clc1ccc(-c2cc(Cl)c(Cl)cc2Cl)cc1Cl | – | – | PDMS-water partitioning | PCB compilation | baseline: maximum over minimum K | literature range factor | 2
CCN1CCN(Cc2ccc(Nc3ncc(F)c(-c4cc(F)c5nc6n(c5c4)[C@H](C)CCC6)n3)nc2)CC1 | – | – | advanced solid tumour patients | dose not given, Phase Ia monotherapy | – | Diarrhea incidence, grade ≥3 | 16.7%
CC(C)[C@@H]1NC(=O)CNC(=O)[C@H](CC(N)=O)NC(=O)[C@H](CCCNC(=N)N)NC(=O)[C@H](Cc2ccc(O)cc2)NC(=O)[C@H](C(C)C)NC(=O)[C@@H](NC(=O)[C@@H](NC(=O)[C@H](CC(N)=O)NC(=O)[C@H](Cc2c[nH]c3ccccc23)NC(=O)[C@H](C)NC(=O)[C@H](Cc2ccccc2)NC(=O)CN)C(C)C)CSSC[C@@H](C(=O)N[C@@H](Cc2cnc[nH]2)C(=O)N[C@@H](CCCNC(=N)N)C(=O)N[C@@H](CCCNC(=N)N)C(=O)N[C@@H](C)C(=O)N[C@@H](CC(N)=O)C(N)=O)NC(=O)[C@H](C(C)C)NC(=O)[C@H](CCCNC(=N)N)NC1=O | – | – | ICR mice, blood | intraperitoneal, 10 mg/kg, day 5 | – | eosinophils | 2.22 ± 0.11%
Cc1nc2c(=O)n(C)c(=O)nc-2n(C)n1 | – | – | mouse liver microsomes | – | – | hepatic clearance | < 22.1 mL/min/kg
C[C@@H](NC(=O)N1C(=O)[C@H](Cc2ccnc(N)c2)[C@H]1C(=O)O)C1CCCCC1 | – | – | healthy adult Chinese volunteers | continuous intravenous infusion, 0.6 mg/kg/h, 5-day infusion, CTCAE 5.0 grading | – | incidence of moderate AEs | 0%
O=c1ccc2ccccc2o1 | NHEK | cell count | – | concentration not given, 1 h, pH2AX and pH3 panel | – | chance response | 0.01%
C[C@H]1CN(c2n[nH]c3nc(N[C@H]4CC[C@H](NS(=O)(=O)CCC(F)(F)F)CC4)ncc23)CCO1 | Serine/threonine-protein kinase N1 (PKN1, Homo sapiens, UniProt Q16512) | inhibitor, Kinobeads competition profiling | – | 20 µM | baseline: vehicle | relative abundance | 1.09
COc1cccc2c1CCCC2CCCN1CCN(C2CCCCC2)CC1 (stereo not shown) | – | – | CD-1 mouse, male, plasma | intraperitoneal, 1 mg/kg | – | AUC(0-t) | 54.3 ng·h/mL
COc1cc2c(Oc3ccc4[nH]c(C)cc4c3F)ccnc2cc1OCC1(N)CC1 | – | – | paediatric recurrent refractory sarcoma | 10 mg | – | grade 1 or 2 Hypothyroidism | 100%
Clc1cc(Cl)c(-c2cc(Cl)c(Cl)c(Cl)c2Cl)cc1Cl | – | – | fresh water | 12 (unit not given), 20 °C, S30-2 sampler, 30 µm | – | log K(PDMS-water) | 6.67 ± 0.08
Cc1ccc2c(c1)C(=O)C1(O)CCN(c3ccccc3)C1=N2 (stereo not shown) | – | echocardiography | rat | intravenous infusion, 0.5 mg/kg, 10 min | – | cardiac output reduction | 25 to 50%
CO[C@H]1C[C@@H]2CC[C@@H](C)[C@@](O)(O2)C(=O)C(=O)N2CCCC[C@H]2C(=O)O[C@H]([C@H](C)C[C@@H]2CC[C@@H](OC(=O)NCCOCCOCCOCCOCCOCCOCCOCCOCCC(=O)N3CCc4cc(Cn5nc(-c6ccc7oc(N)nc7c6)c6c(N)ncnc65)ccc4C3)[C@H](OC)C2)C[C@@H](O)[C@H](C)/C=C(\C)[C@@H](O)[C@@H](OC)C(=O)[C@H](C)C[C@H](C)/C=C/C=C/C=C/1C | – | – | advanced solid tumour patients | intravenous, dose not given, any grade, all doses | – | incidence of SAE | 33.3%
O=C(Nc1ccccc1)C1CCN(C(=O)Oc2cccnc2)CC1 | – | psychotropic effects VAS | healthy women | 60 mg | baseline: pre-dose baseline, direction not given | change in Time score | 4.7
CC[C@H](C)[C@H](NC(=O)[C@H](Cc1ccccc1)NC(=O)[C@H](CCC(=O)O)NC(=O)[C@H](CCCNC(=N)N)NC(=O)[C@H](C)NC(=O)[C@H](C)NC(=O)[C@H](CCC(N)=O)NC(=O)[C@H](CCC(=O)O)NC(=O)[C@H](CCC(=O)O)NC(=O)[C@H](CC(C)C)NC(=O)[C@H](Cc1ccc(O)cc1)NC(=O)[C@H](CO)NC(=O)[C@H](CO)NC(=O)[C@@H](NC(=O)[C@H](CC(=O)O)NC(=O)[C@H](CO)NC(=O)[C@@H](NC(=O)[C@H](Cc1ccccc1)NC(=O)[C@@H](NC(=O)CNC(=O)[C@H](CCC(=O)O)NC(=O)[C@H](C)NC(=O)CCc1c[nH]cn1)[C@@H](C)O)[C@@H](C)O)C(C)C)C(=O)N[C@@H](C)C(=O)N[C@@H](Cc1c[nH]c2ccccc12)C(=O)N[C@@H](CC(C)C)C(=O)N[C@H](C(=O)N[C@@H](CCCNC(=N)N)C(=O)NCC(=O)N[C@@H](CCCNC(=N)N)C(=O)N[C@@H](CCCCNC(=O)COCCOCCNC(=O)COCCOCCNC(=O)CC[C@H](NC(=O)CCCCCCCCCCCCCCCCC(=O)O)C(=O)O)C(=O)NCC(=O)NCC(=O)N[C@@H](CO)C(=O)N[C@@H](CCCCNc1c(NCCCCCN(O)C(=O)CCC(=O)NCCCCCN(O)C(=O)CCC(=O)NCCCCCN(O)C(C)=O)c(=O)c1=O)C(=O)O)C(C)C [zirconium-89 labelled] | – | – | rat, bone marrow | iv, 3 nmol/kg, 24 h, ex vivo | – | tissue uptake | 0.99 %ID/g
N=C(N)NCCC[C@@H](NC(=O)[C@@H](N)Cc1ccccc1)C(=O)N[C@@H](Cc1ccccc1)C(=O)N[C@@H](CCCCN)C(N)=O | – | LC-MS | human | 5 mg, 5.833 h | – | median amount excreted in urine | 1.02e+06 ng
CN1CC[C@@H](c2c(O)cc(O)c3c(=O)cc(-c4ccc(C(F)(F)F)cc4Cl)oc23)[C@@H]1CO | – | refers to: grade 3 respiratory failure | relapsed or refractory haematologic malignancy patients | oral, dose not given, phase dose escalation, all doses | – | patients with adverse event | 5%
COc1ccc(N2C(=O)N(c3c(C)cccc3Cl)Cc3cnc(Nc4ccc(C5CCN(C)CC5)cc4OC)nc32)nc1 | G protein-coupled receptor kinase 6 (GRK6, Homo sapiens, UniProt P43250) | kinase activity | – | 0.5 µM | – | inhibition | -4.41%
CC(=O)N1CCC(C(=O)N2CCN3C(=O)c4cc(-c5ccccc5)ccc4NC(=O)C3C2)CC1 (stereo not shown) | Salmonella typhimurium | – | TA1537 | 5.0 µg/plate | – | revertants per plate | 10.5
Cc1cc(C(=O)NC(C)(C)COc2cccc3c2C(N)=NS(=O)(=O)N3)cc(C)n1 | Salmonella typhimurium | Ames test, initial | TA98 | 15.0 µg/plate | baseline: solvent control | revertant ratio | 1.1

Excerpt of the above:
Structure (SMILES) | tested on | assay | test system | setting | scale | measurement | value
Cc1ccc2c(c1)C(=O)C1(O)CCN(c3ccccc3)C1=N2 (stereo not shown) | – | echocardiography | rat | intravenous infusion, 0.5 mg/kg, 10 min | – | cardiac output reduction | 25 to 50%
C[C@H]1CN(c2n[nH]c3nc(N[C@H]4CC[C@H](NS(=O)(=O)CCC(F)(F)F)CC4)ncc23)CCO1 | Serine/threonine-protein kinase N1 (PKN1, Homo sapiens, UniProt Q16512) | inhibitor, Kinobeads competition profiling | – | 20 µM | baseline: vehicle | relative abundance | 1.09
COc1ccc(N2C(=O)N(c3c(C)cccc3Cl)Cc3cnc(Nc4ccc(C5CCN(C)CC5)cc4OC)nc32)nc1 | G protein-coupled receptor kinase 6 (GRK6, Homo sapiens, UniProt P43250) | kinase activity | – | 0.5 µM | – | inhibition | -4.41%
